Experimental data from different studies.
Lines come from different studies, so protocols differ. ± gives the spread as reported.

CC1=C(/C=C/C(C)=C/C=C/C(C)=C/C(=O)Nc2ccc(O)cc2)C(C)(C)CCC1 — Km (substrate, measured: 4'-oxo metabolite formation; human liver microsomes; 3 h, pH 7.4): 9.3 ± 3.2 µM
CNC(=C[N+](=O)[O-])NCCSCc1ccc(CN(C)C)o1 — EC20 (mitochondrial swelling; BALB/cByJ female mouse liver mitochondria; 30 min, added: succinate + rotenone; baseline: CaCl2 maximal swelling): > 400 µM
Cn1c(-c2ccc(C(N)=O)cc2F)nnc1C(C)(C)Oc1c(F)cc(Cl)cc1F — AUC(0-tau) range (healthy young Japanese subjects, plasma; oral, 50 mg once daily, day 18, 14 days dosing): 1200 to 13200 ng·h/mL
C[C@H](N)C(=O)N1C[C@H](CCCB(O)O)[C@](N)(C(=O)O)C1 — median tmax (human patients, plasma; oral, 150 mg single dose, cycle 1 day 1): 6 h
QTAEELLEV — random coil content (far-UV CD; peptide, Tris-HCl buffer, 100 mM NaCl; pH 8.0, room temperature): 16.4%
COc1cccc(CN)c1O — elimination half-life (C57BL/6N mouse, male, plasma; intraperitoneal, 200 mg/kg): 0.61 h
Nc1c(Br)cc(Br)cc1CN[C@H]1CC[C@H](O)CC1 — EC20 (mitochondrial swelling; BALB/cByJ female mouse liver mitochondria; 30 min, added: succinate + rotenone; baseline: CaCl2 maximal swelling): > 400 µM
CC12CCC(CC1)C(C)(C)O2 — detoxification rate ratio (headspace GC; liver microsomes; 15 min, pH 7.4; baseline: pygmy rabbit over mountain cottontail): 4.6 fold
Cc1cc(Nc2cc3ncccc3c(N[C@@H]3C[C@H]4CC[C@@H](C3)N4CCC#N)n2)n[nH]1 — Cmax (Sprague-Dawley rat, male, plasma; oral, 1000 mg/kg/day, last day of 4 weeks): 62.5 ng/mL
CC(=O)N[C@@H](CCC(=O)O)C(=O)N[C@H](C(=O)N[C@@H](CCCNC(=N)N)C(=O)N[C@@H](CO)C(=O)N[C@@H](CCCCN)C(=O)N[C@@H](CC(C)C)C(=O)N[C@@H](CCC(=O)O)C(=O)N[C@@H](CCC(=O)O)C(=O)N[C@@H](Cc1c[nH]c2ccccc12)C(=O)N[C@@H](Cc1ccccc1)C(=O)N[C@@H](C)C(=O)N[C@@H](C)C(=O)N[C@@H](Cc1ccccc1)C(=O)N[C@@H](CCCNC(=N)N)C(=O)N[C@@H](CCC(=O)O)C(=O)N[C@@H](Cc1ccccc1)C(=O)N[C@@H](C)C(=O)N[C@@H](CCC(=O)O)C(=O)N[C@@H](CCC(=O)O)C(=O)N[C@@H](Cc1ccccc1)C(=O)N[C@@H](CC(C)C)C(=O)N[C@@H](C)C(=O)N[C@@H](CCCNC(=N)N)C(=O)N[C@@H](CC(C)C)C(=O)N[C@@H](CCCCN)C(=O)N[C@@H](CO)C(N)=O)C(C)C — TFE share for monomeric peptide (DMS cross-linking, SDS-PAGE; phosphate buffer; 30 min, pH 7.4, 25 °C): > 40 % TFE
CC(C)(CC(=O)N1CCCC1)NCC(=O)N1C[C@@H](F)C[C@H]1C#N — AUC(0-tau) at steady state (Chinese type 2 diabetes patients, plasma; oral, 50 mg once daily, multiple doses): 728 ng·h/mL
CCOc1ccc(Cc2cc([C@@H]3S[C@H](CO)[C@@H](O)[C@H](O)[C@H]3O)c(OC)cc2C)cc1 — AUC(0-last) (Japanese type 2 diabetes patients, plasma; oral, 5 mg single dose, eGFR 30-44 mL/min/1.73 m^2): 2030 ± 403 ng·h/mL
O=C(C1CC1)n1nc(C(F)(F)F)c2cccnc21 — half-life (chemical stability; aqueous buffer; pH 7.4): > 4 h
CC(=O)N[C@@H](Cc1ccccc1)C(=O)N[C@H]1CCCNC(=O)[C@H](CCCNC(=N)N)NC(=O)[C@H](Cc2c[nH]c3ccccc23)NC(=O)[C@@H](CC2CCCCC2)NC(=O)[C@@H]2CCCN2C1=O — elimination half-life (C57BL/6J mice, plasma; intraperitoneal, 1 mg/kg): 0.168 h
COc1cc2ncnc(Nc3ccc(F)c(Cl)c3)c2cc1OCCCN1CCOCC1 — tissue/plasma ratio (ICR mice, male, brain over plasma; intravenous, 5 mg/kg, cassette dosing; baseline: AUC brain over AUC plasma): 0.9
O=[N+]([O-])c1ccc(S(=O)(=O)Cc2ccccc2)c2nonc12 — degradation product peak area (ammonium carbonate buffer; pH 9; baseline: water): 100 fold
COc1cc2c(cc1OC)CN(CCc1ccc(NC(=O)c3cc(OC)c(OC)cc3NC(=O)c3cnc4ccccc4c3)cc1)CC2 — clearance (human, plasma; intravenous infusion, 8 mg/kg): 262 mL/min
CO[C@H]1/C=C/O[C@@]2(C)Oc3c(C)c(O)c4c(O)c(c(/C=N/N5CCN(C)CC5)c(O)c4c3C2=O)NC(=O)/C(C)=C\C=C\[C@H](C)[C@H](O)[C@@H](C)[C@@H](O)[C@@H](C)[C@H](OC(C)=O)[C@@H]1C — EC20 (cytochrome c release, ELISA; BALB/cByJ female mouse liver mitochondria; 30 min; baseline: alamethicin maximal release): > 200 µM
CC[C@H](C)[C@H](NC(=O)[C@H](Cc1ccccc1)NC(=O)[C@H](CCC(=O)O)NC(=O)[C@H](CCCCNC(=O)COCCOCCNC(=O)COCCOCCNC(=O)CC[C@H](NC(=O)CCCCCCCCCCCCCCCCC(=O)O)C(=O)O)NC(=O)[C@H](C)NC(=O)[C@H](C)NC(=O)[C@H](CCC(N)=O)NC(=O)CNC(=O)[C@H](CCC(=O)O)NC(=O)[C@H](CC(C)C)NC(=O)[C@H](Cc1ccc(O)cc1)NC(=O)[C@H](CO)NC(=O)[C@H](CO)NC(=O)[C@@H](NC(=O)[C@H](CC(=O)O)NC(=O)[C@H](CO)NC(=O)[C@@H](NC(=O)[C@H](Cc1ccccc1)NC(=O)[C@@H](NC(=O)CNC(=O)[C@H](CCC(=O)O)NC(=O)C(C)(C)NC(=O)[C@@H](N)Cc1cnc[nH]1)[C@@H](C)O)[C@@H](C)O)C(C)C)C(=O)N[C@@H](C)C(=O)N[C@@H](Cc1c[nH]c2ccccc12)C(=O)N[C@@H](CC(C)C)C(=O)N[C@H](C(=O)N[C@@H](CCCNC(=N)N)C(=O)NCC(=O)N[C@@H](CCCNC(=N)N)C(=O)NCC(=O)O)C(C)C — absorption rate constant (population PK model; human; subcutaneous, reference subject): 0.0253 h⁻¹
CNC(=O)c1ccc(-c2cnc3ncc(Cc4ccc5ncccc5c4)n3n2)cc1F — Vz/F (geometric mean) (human, mild hepatic impairment (Child-Pugh A), plasma; oral, 200 mg single dose): 324 L
O=C(O)c1cccc(CN2CN(C3CCCCC3)C3(CCN(CCCC(=O)c4ccccc4)CC3)C2=O)c1 — rearing activity (rat Sprague Dawley female; 300 mg/kg/day, 4 to 8 min after start, second session): 4 counts
O=C(c1ccc(-n2nc(C(F)(F)F)c3c2CCCC3)cc1)N1CCCC1 — brain concentration (rat; oral, 0.3 mg/kg, 30 min): 37 ng/g
CC(C)[C@H](N)C(=O)OCC1(CO)C/C1=C/n1cnc2c(=O)[nH]c(N)nc21.Cl (mixture of isomers) — elimination rate constant (measured: prodrug; Swiss-Webster mice, male, plasma; intravenous, 24.6 mg/kg): 0.0043 min⁻¹
C#C[C@]1(CO)O[C@@H](n2cnc3c(N)nc(F)nc32)C[C@@H]1O — AUC(0-inf) (human, plasma; oral, 30 mg, single dose, fed): 4.3 µM·h
CC(=O)N[C@H](CSSC[C@H](N)C(=O)O)C(=O)N[C@H](C)C(=O)N[C@H](CCCNC(=N)N)C(=O)N[C@H](CCCNC(=N)N)C(=O)N[C@H](CCCNC(=N)N)C(=O)N[C@H](C)C(=O)N[C@H](CCCNC(=N)N)C(N)=O — rate ratio (human whole blood; baseline: biotransformation over reverse): 2.1 fold
NCCCC[C@@H]1NC(=O)[C@@H](Cc2c[nH]c3ccccc23)NC(=O)[C@H](c2ccccc2)NC(=O)[C@@H]2C[C@@H](OC(=O)NCCN)CN2C(=O)[C@H](Cc2ccccc2)NC(=O)[C@H](Cc2ccc(OCc3ccccc3)cc2)NC1=O — alpha half-life (radioimmunoassay; healthy human male volunteers, plasma; subcutaneous, 300 µg): 2.4 ± 0.7 h
Cc1ccc2[nH]c(=O)c(CC(=O)O)c(-c3ccccc3)c2c1 — logP (potentiometric): 3.16
Cn1cc(-c2ccc(S(=O)(=O)[C@@H]3C[C@@H](C(=O)NC4(C#N)CC4)N(C(=O)C4(C(F)(F)F)CC4)C3)c(C(F)(F)F)c2)cn1 — absorption rate constant ka (population PK model; human, plasma; oral, 1 and 3 mg, fasted and fed estimates): 2.95 h⁻¹
Ac-CGWWLALALALALALALALALWWA-NH2 (N-acetyl, C-amide) — folded core length (circular dichroism; water/TFE, extrapolated to water): 7 residues
O=C(c1cccnc1-c1ccncc1)N1CCC(O)(Cc2ccccc2)CC1 — AUCinf (healthy human, plasma; oral, 400 mg once daily, day 14, arithmetic mean): 3090 ng·h/mL
COc1cc(CNC(=O)CCCC/C=C/C(C)C)ccc1O — EC20 (cytochrome c release, ELISA; BALB/cByJ female mouse liver mitochondria; 30 min; baseline: alamethicin maximal release): > 200 µM
CC[C@H](C)[C@H](NC(=O)[C@H](C)NC(=O)[C@H](CCCNC(=N)N)NC(=O)[C@H](CCCNC(=N)N)NC(=O)[C@H](CC(N)=O)NC(=O)[C@H](CCCNC(=N)N)NC(=O)[C@H](CCCNC(=N)N)NC(=O)[C@H](C)NC(=O)[C@@H](NC(=O)[C@@H](NC(=O)[C@@H](NC(=O)[C@H](CS)NC(=O)[C@H](CCCCN)NC(=O)[C@@H](N)CCCNC(=N)N)C(C)C)[C@@H](C)CC)C(C)C)C(=O)N[C@H](C(=O)N[C@@H](CC(C)C)C(=O)N[C@@H](CS)C(=O)N[C@@H](CCCNC(=N)N)C(=O)O)[C@@H](C)CC — single disulfide form (LC-MS; PBS; 0.1 mg/mL): 59%
CCc1oc2ccc(F)cc2c1C(=O)c1cc(Br)c(O)c(Br)c1 — microsomal CLint (metabolic stability; Sprague-Dawley rat, liver microsomes; 1 µM, pH 7.4): 143 µL/min/mg
COc1ccc(C=CC(=O)O)cc1OS(=O)(=O)O — median concentration (human, fasted baseline, cerebrospinal fluid): 12.8 nM
CN1CCN(c2ccc3nc(-c4c(N)c5c(F)cccc5[nH]c4=O)[nH]c3c2)CC1 — AUC (patients, plasma; oral, 300 mg, day 1, AUC 0-24 h median concurrent dosing, added: gemcitabine and capecitabine): 3420 ng·h/mL
COc1cccc(-c2ccc(NC(=O)C3=C(C(=O)O)CCC3)c(F)c2)c1 — Vd/F (male human, plasma; oral, 30 mg, single dose, fasted, healthy volunteers): 12.4 L

Repeated from above:
CC(=O)N[C@H](CSSC[C@H](N)C(=O)O)C(=O)N[C@H](C)C(=O)N[C@H](CCCNC(=N)N)C(=O)N[C@H](CCCNC(=N)N)C(=O)N[C@H](CCCNC(=N)N)C(=O)N[C@H](C)C(=O)N[C@H](CCCNC(=N)N)C(N)=O — rate ratio (human whole blood; baseline: biotransformation over reverse): 2.1 fold
CNC(=O)c1ccc(-c2cnc3ncc(Cc4ccc5ncccc5c4)n3n2)cc1F — Vz/F (geometric mean) (human, mild hepatic impairment (Child-Pugh A), plasma; oral, 200 mg single dose): 324 L
Cc1cc(Nc2cc3ncccc3c(N[C@@H]3C[C@H]4CC[C@@H](C3)N4CCC#N)n2)n[nH]1 — Cmax (Sprague-Dawley rat, male, plasma; oral, 1000 mg/kg/day, last day of 4 weeks): 62.5 ng/mL
COc1cccc(CN)c1O — elimination half-life (C57BL/6N mouse, male, plasma; intraperitoneal, 200 mg/kg): 0.61 h
CC(C)(CC(=O)N1CCCC1)NCC(=O)N1C[C@@H](F)C[C@H]1C#N — AUC(0-tau) at steady state (Chinese type 2 diabetes patients, plasma; oral, 50 mg once daily, multiple doses): 728 ng·h/mL
